Assay results of several laboratories.
Every numbered part comes from another study and shows a few of its results, in no order.
UniProt P61075, sequence (whole entry, looked up): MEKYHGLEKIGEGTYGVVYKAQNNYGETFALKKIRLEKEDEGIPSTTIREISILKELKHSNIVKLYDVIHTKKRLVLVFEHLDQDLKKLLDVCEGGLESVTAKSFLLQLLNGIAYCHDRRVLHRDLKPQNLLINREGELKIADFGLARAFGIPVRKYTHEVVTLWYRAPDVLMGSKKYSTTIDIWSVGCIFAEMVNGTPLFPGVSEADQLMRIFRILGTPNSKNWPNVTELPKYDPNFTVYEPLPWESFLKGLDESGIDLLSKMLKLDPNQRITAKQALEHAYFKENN
UniProt Q8NI60, sequence (whole entry, looked up): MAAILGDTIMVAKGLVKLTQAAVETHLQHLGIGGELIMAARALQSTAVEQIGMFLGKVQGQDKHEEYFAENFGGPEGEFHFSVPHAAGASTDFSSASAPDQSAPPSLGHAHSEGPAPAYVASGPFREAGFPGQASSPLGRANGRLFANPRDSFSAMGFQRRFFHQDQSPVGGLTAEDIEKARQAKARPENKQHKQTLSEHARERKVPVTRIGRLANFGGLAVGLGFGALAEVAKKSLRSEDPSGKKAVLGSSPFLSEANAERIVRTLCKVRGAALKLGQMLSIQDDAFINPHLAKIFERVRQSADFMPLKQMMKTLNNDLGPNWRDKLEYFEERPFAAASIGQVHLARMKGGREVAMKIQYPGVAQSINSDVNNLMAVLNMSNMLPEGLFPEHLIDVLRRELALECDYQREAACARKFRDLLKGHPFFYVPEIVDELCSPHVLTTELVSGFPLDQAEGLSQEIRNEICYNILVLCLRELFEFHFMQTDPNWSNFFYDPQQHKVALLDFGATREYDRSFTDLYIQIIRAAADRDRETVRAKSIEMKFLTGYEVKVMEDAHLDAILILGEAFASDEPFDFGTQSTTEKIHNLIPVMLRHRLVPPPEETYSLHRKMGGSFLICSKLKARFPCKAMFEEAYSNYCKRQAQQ

Block 1 — cell line: HEK-293T/ACE2; tested at: concentration not given; time: 16 (unit not given); reference: vehicle
Compound	viability [%]
CCN(CC)CCCC(C)Nc1ccnc2cc(Cl)ccc12 (centres unmarked)	104
O=C1c2c(O)ccc(O)c2C(=O)c2c(NCCNCCO)ccc(NCCNCCO)c21	70
C#C[C@]1(O)CC[C@H]2[C@@H]3CCC4=CC(=O)CC[C@@H]4[C@H]3CC[C@@]21C	99.5
OC[C@@H](O)[C@@H](O)[C@H](O)[C@H](O)CO	97.8

Block 2 — organism: Sarcocystis neurona; effect on: parasite growth; tested at: concentration not given; setting: first screen; reference: untreated
Compound	log2 fold change
Cl.O.Oc1ccc2c3c1O[C@H]1c4[nH]c5ccccc5c4C[C@@]4(O)[C@@H](C2)N(CC2CC2)CC[C@]314	-0.08
CN1CC[C@@H](c2ccc(F)cc2)[C@H](COc2ccc3c(c2)OCO3)C1	-0.23
Cl.OC1CCCCC1N1CCC(c2ccccc2)CC1 (racemic)	-0.16
COc1cc(N)c(Cl)cc1C(=O)NC1CN2CCC1CC2.Cl (centres unmarked)	-0.02

Mixed results
Compound	tested on	assay	test system	conditions	quantity	result
O=C(NCc1ncc(C(F)(F)F)cc1Cl)c1ccc2c(c1)C1(CCS(=O)(=O)CC1)[C@H](C1CC1)N2S(=O)(=O)c1ccc(F)cc1	COQ8A (Homo sapiens, UniProt Q8NI60)	cell-free assay, competition with immobilised ligand		1 µM	remaining binding	96%
Cc1n[nH]c2c1C(c1c(Cl)nc3sccn13)SCC(O)=N2 (centres unmarked)			human, microsomes or S9	2 µM, 0.5 h	remaining compound	70.6%
Cc1c(C(=O)O)cc(-c2ccc(C3CCNCC3)cc2)c2ccc(-c3ccc(C(F)(F)F)cc3)cc12	CRK2 (Plasmodium falciparum, UniProt P61075)	cell-free assay, competition with immobilised ligand		1 µM	remaining binding	100%
